Assay results from different studies.
Compare with care: the assays were run in different laboratories. Several values in a cell are separate wells, animals, samples, runs or records. ± marks the error that the study gave. Converted amounts (≈) assume the structure as drawn.
BCHE: Cholinesterase (BCHE, Homo sapiens, UniProt P06276)
Sequence of UniProt P06276 (whole entry, looked up): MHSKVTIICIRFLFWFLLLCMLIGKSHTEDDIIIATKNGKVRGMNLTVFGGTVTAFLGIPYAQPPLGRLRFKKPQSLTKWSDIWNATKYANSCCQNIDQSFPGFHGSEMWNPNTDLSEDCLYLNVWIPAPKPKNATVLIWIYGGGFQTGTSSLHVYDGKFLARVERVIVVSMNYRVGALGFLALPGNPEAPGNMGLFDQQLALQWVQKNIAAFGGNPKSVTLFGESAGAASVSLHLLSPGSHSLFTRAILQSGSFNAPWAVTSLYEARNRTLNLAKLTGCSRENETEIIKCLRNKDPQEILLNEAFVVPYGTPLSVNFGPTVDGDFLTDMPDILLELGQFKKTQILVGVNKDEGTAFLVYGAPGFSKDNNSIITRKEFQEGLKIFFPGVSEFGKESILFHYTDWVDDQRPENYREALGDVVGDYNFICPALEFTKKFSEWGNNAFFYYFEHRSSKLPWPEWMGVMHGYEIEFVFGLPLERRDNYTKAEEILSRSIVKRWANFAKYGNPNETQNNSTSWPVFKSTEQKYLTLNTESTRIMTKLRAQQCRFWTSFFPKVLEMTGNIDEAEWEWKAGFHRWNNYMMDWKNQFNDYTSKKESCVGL
Sequence of UniProt O00408 (whole entry, looked up): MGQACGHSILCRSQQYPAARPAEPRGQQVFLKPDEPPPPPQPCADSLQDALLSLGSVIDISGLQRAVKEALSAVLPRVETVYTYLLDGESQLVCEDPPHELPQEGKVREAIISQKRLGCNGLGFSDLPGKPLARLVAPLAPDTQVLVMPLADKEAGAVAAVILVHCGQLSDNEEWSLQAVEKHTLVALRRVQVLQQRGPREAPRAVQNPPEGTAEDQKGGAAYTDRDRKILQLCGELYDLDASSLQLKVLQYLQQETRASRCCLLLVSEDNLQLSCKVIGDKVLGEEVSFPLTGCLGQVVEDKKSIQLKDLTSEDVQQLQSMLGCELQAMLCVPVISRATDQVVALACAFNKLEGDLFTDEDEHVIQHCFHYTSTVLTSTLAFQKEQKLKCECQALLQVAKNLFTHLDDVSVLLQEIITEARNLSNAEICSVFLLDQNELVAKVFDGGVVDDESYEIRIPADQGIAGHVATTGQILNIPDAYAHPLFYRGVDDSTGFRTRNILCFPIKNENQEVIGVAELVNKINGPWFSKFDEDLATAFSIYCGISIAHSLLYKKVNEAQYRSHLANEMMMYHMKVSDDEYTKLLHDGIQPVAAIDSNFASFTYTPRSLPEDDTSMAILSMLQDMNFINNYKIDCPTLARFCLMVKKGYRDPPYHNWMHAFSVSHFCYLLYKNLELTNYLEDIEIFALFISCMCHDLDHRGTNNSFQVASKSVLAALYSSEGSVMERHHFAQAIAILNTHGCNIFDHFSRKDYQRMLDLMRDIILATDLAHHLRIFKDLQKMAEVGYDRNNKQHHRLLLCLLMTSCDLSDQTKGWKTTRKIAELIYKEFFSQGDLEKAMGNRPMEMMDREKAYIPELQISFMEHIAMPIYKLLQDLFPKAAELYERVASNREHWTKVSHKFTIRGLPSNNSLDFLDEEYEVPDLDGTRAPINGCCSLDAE

The IC50 of `C[C@]12N[C@H](Cc3ccccc31)c1ccccc12` is reported as 3.98 µM (Plasmodium falciparum; GB4).
The LC50 of `COc1cc(CCC[P+](c2ccccc2)(c2ccccc2)c2ccccc2)c(OC)c2c1OCO2.[I-]` is reported as greater than -4 log M (NCI-H226; SRB).
`CC[C@@H](C)[C@@H]1NC(=O)[C@@H]2CCCN2C(=O)[C@H](Cc2ccccc2)N(C)C(=O)[C@H](Cc2ccccc2)NC(=O)[C@H](C(C)C)N(C)C(=O)[C@@H]([C@H](C)CC)OC(=O)[C@H](C(C)(C)O)N(C)C(=O)[C@H](CC(C)C)NC(=O)[C@H](C(C)C)N(C)C1=O` gave an EC50 of 0.0408 ± 0.0221 µM (Botrytis cinerea; fungal growth, inhibitor; B05.10 wild type; 168 h).
With `O=C(NCCCNc1nc(Nc2cccc(CN3CCOCC3)c2)ncc1C1CC1)C1CCC1` the IC50 was 3.31 ± 0.22 µM (BCHE; inhibitor).
The EC50 of `CC1(C(=O)Nc2ccc(O)c(Cl)c2Cl)CCCCC1` is reported as 0.0466 ± 0.0234 µM (Botrytis cinerea; fungal growth, inhibitor; B05.10 wild type; 168 h).
`COc1cc(C[C@@H](C)N)c(OC)cc1I` gave an IC50 of 3.16 µM (Plasmodium falciparum; W2).
The MIC of `CC[C@H](C)[C@H](NC(=O)[C@H](CCCCN)NC(=O)[C@@H](NC(=O)[C@@H](NC(=O)[C@H](CC(C)C)NC(=O)[C@H](CCCNC(=N)N)NC(=O)[C@@H](NC(=O)[C@H](CC(C)C)NC(=O)[C@H](CCCNC(=N)N)NC(=O)CNC(=O)[C@H](Cc1ccccc1)NC(=O)[C@@H](N)CCCNC(=N)N)[C@@H](C)CC)[C@@H](C)CC)C(C)C)C(=O)N[C@@H](C)C(=O)N[C@@H](CCCNC(=N)N)C(=O)N[C@@H](CCCNC(=N)N)C(=O)N[C@@H](C)C(=O)N[C@@H](Cc1c[nH]cn1)C(=O)N[C@@H](CCCNC(=N)N)C(=O)N[C@@H](C)C(=O)N[C@@H](CCCNC(=N)N)C(=O)N[C@@H](CO)C(=O)N[C@@H](C)C(=O)N[C@H](C(=O)N[C@@H](CCCCN)C(=O)N[C@@H](C)C(=O)N[C@@H](C)C(=O)N[C@@H](CO)C(=O)N[C@@H](CC(N)=O)C(=O)N[C@H](C(=O)N[C@@H](C)C(=O)N[C@@H](CCC(=O)O)C(=O)N[C@@H](CC(C)C)C(=O)N[C@@H](C)C(=O)N[C@@H](Cc1c[nH]cn1)C(=O)NCC(=O)N[C@@H](CCC(=O)O)C(=O)O)C(C)C)C(C)C` is reported as no more than 0.062 µM (Cryptococcus neoformans; resazurin broth microdilution; 36 h, 35 °C).
For `Nc1ccn(C[C@@H](CO)OCP(=O)(O)O)c(=O)n1`, the infection was 67.5% and 52.9% and 47.8% (Fowlpox virus; viral infection; CEF; 100 µM; reference: untreated).
`C#CCN(C)[C@H](C)Cc1ccccc1`: “corridor crossing time” 7.52 s and 5.93 s and 4.27 s and 5.85 s and 4.8 s and 5.33 s and 5.73 s (footprint test; MPTP-induced Parkinson's disease mouse model; 10 mg/kg).
`Cn1cc(-c2ccc3ccn(CC(=O)Nc4ccccc4Cl)c3c2)cn1` has an EC50 shift of roughly 2 fold (Plasmodium falciparum; parasite growth; Dd2 PfATP4 F156L; reference: parental Dd2).
For `NC(=O)c1ncn([C@@H]2O[C@H](CO)[C@@H](O)[C@H]2O)n1`, the EC50 was 4.8 µM (Influenza B virus; MDCK).
`NC12CC3CC(CC(C3)C1)C2` has an EC50 of 0.4 µM (influenza A virus H3N2; viral cytopathic effect, MTS; MDCK).
For `CC[C@H](C)[C@@H]1NC(=O)[C@@H]2CCCN2C(=O)[C@H](CC(C)C)NC(=O)[C@H](CC(C)C)NC(=O)CNC(=O)[C@@H](NC(=O)[C@@H](NC(=O)[C@H](CC(=O)O)NC(=O)CNC(=O)[C@@H](NC(=O)[C@H](C)NC(=O)CNC(=O)[C@H](CCCCN)NC(=O)[C@H](CC(C)C)NC(=O)[C@H](CC(C)C)NC(=O)[C@H](CCCCN)NC(=O)CNC(=O)[C@@H](NC(=O)[C@@H](N)CC(C)C)C(C)C)C(C)C)C(C)C)CSSC[C@@H](C(=O)O)NC1=O`, “log2 fold change” read -2.69 (RNA-seq, measured: Stoml3; mouse, traumatic brain injury model, frontal cortex and hippocampus; dose not given; reference: TBI alone).
`NC(=O)c1ncn([C@@H]2O[C@H](CO)[C@@H](O)[C@H]2O)n1` gave an EC50 of 4.8 µM (influenza A virus H3N2; viral cytopathic effect, MTS; MDCK).
`COc1cc(Nc2ncc(F)c(Nc3ccc4c(n3)NC(=O)C(C)(C)O4)n2)cc(OC)c1OC` gave an IC50 of greater than 10 µM (PDE2A (Homo sapiens, UniProt O00408)).
For `COc1c(CCC[P+](c2ccccc2)(c2ccccc2)c2ccccc2)cc2c(c1OC)OCO2.[I-]`, the GI50 was -5.99 log M (IGROV-1; SRB).
`CS(=O)(=O)Nc1ncn(-c2cc(F)c(COc3ccc(OS(=O)(=O)F)cc3)c(F)c2)n1` gave an MIC of 0.031 µM (Mycobacterium tuberculosis; MABA; H37Rv).
Under apoptosis, `CCC(CC)COC(=O)[C@H](C)N[P@](=O)(OC[C@H]1O[C@@](C#N)(c2ccc3c(N)ncnn23)[C@H](O)[C@@H]1O)Oc1ccccc1` is recorded as “decreased” (respiratory syncytial virus; RSV-infected cells; concentration not given).
`O[C@@H]1[C@H](O)[C@@H]2C[C@@H]2[C@H]1n1cnc2c(NC(C3CC3)C3CC3)nc(Cl)nc21` gave an EC50 of 32 µM (respiratory syncytial virus; viral replication; MA104, A2).
`OC(Cn1cncn1)(Cn1cncn1)c1ccc(F)cc1F` has an OD600 of 0.832 and 0.887 and 0.902 (Saccharomyces cerevisiae; cell growth; Pdr5 deleted, Cdr1 overexpressed; 2^5.322 µg/mL).
`CN1CCC[C@@H]1Cc1c[nH]c2ccc(CCS(=O)(=O)c3ccccc3)cc12` gave an IC50 of 5.25 ± 0.34 µM (BCHE; inhibitor).
The EC50 of `CO/N=C(/C(=O)OC)c1ccccc1CO/N=C(\C)c1cccc(C(F)(F)F)c1` is reported as 0.0069 ± 0.0021 µM (Botrytis cinerea; fungal growth, inhibitor; B05.10 wild type; 168 h).
The MIC50 of `O=C(O)c1nccnc1NC(=O)c1cccc2ccccc12` is reported as 200 µM (≈ 58.7 µg/mL) (Mycobacterium bovis; BCG ATCC 35734; 120 h).
For `CO[C@H]1/C=C/O[C@@]2(C)Oc3c(C)c(O)c4c(c3C2=O)C2=NC3(CCN(CCn5c([N+](=O)[O-])cnc5C)CC3)NC2=C(NC(=O)/C(C)=C\C=C\[C@H](C)[C@H](O)[C@@H](C)[C@@H](O)[C@@H](C)[C@H](OC(C)=O)[C@@H]1C)C4=O`, the MIC was no more than 2 ng/mL (Clostridioides difficile; agar dilution; fluoroquinolone-resistant gyrA D71Y T82A).
The EC50 of `N#Cc1c[nH]cc1-c1cccc2c1OC(F)(F)O2` is reported as 0.0259 ± 0.0006 µM (Botrytis cinerea; fungal growth, inhibitor; B05.10 wild type; 168 h).
